Published values of several laboratories.
Numbered parts are unrelated; each lists some results of a single study.

Series 1
Target: RING finger protein unkempt homolog, zinc fingers 1-6, GST-SBP tag (UNK, Homo sapiens, UniProt Q9C0B0, residues 30-357)
Technique: RNA Bind-n-Seq
Molecule type: RNA
Sample: in vitro
Tested at: not given
Notes: RNA with constant flanks, human and mouse sites, ends assumed
Baseline: input RNA pool
Reading: higher = stronger binding
Measurement: bound/input enrichment
Residues (chain): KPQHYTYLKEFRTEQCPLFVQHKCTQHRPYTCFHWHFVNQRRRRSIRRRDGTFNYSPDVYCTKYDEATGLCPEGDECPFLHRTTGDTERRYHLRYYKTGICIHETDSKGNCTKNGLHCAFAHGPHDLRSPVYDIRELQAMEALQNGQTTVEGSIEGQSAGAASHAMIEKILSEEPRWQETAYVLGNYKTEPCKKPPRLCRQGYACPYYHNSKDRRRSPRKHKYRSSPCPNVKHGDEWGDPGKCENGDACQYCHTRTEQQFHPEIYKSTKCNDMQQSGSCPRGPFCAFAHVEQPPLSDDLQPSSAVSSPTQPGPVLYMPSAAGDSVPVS
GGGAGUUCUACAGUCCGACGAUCAGAGAAGACACAUUUUCUAGUGAUGCAGAGAUUAACAAAUCACCUGUCAGCUUUACUGAAGAGCUUCACAGUGAGAGAAAGGACCACACACCCAAGGAUACCACAACAGUCUUCUGUCCACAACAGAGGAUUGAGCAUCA: 0.0963 ratio
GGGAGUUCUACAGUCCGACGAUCAAUGAAGCUGAAAUAUGUGAGAGCAUGCCCAUGGUCUCUGGAGCACCAGCACAAGGGUUGGUAGCAAGACCAUCCAGUGUGAACUAUAUGGUAGCACCUGUGACAGGUAACGAUGCUGGACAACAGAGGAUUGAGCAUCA: 0.145 ratio
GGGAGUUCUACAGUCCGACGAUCGCCCAAGCUUGUCCCUGAACCACUGUGUGCCCAUAUCCUAGAGAAGGGGAGGGAGGGAGAAUAGACAGAAUAUUUAUUACAAAUGCUAGAAAUAUAUUUAUUAUAUUAGGAAUCUCAUUUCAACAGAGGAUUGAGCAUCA: 148 ratio
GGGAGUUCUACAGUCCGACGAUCAAAACUACUAUUUUUAGUAUACUUGUUUACGUAAAUGCUGAUUGGAAAUAUUUAAAUGACUAUAGAUCUGAUUCUUUCUUUUCCUUUGGAAACUGGGAUUAAUGUAUGCUCUAGAUCCAUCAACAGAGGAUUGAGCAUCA: 0.521 ratio
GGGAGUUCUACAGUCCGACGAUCACACCAGUUGGGGGACAGAGAACUGCUUCUAGGAAGAACACCAGAUGAAGAGGAUGAAGCCAUCUGGAGAGUAAAUGGCCACCACCACUCCCCCAGAGACAAAGUCAGCAGCGUGGUGGACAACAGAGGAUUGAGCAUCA: 1.31 ratio
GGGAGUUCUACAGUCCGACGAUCGAUGGACAAUUCAAAGAUAUCAGCCUAAGUGAAUACAAAGGAAAAUAUGUUGUGUUCUUCUUUUACCCUCUUGACUUUACUUUUGUGUGUCCCACGGAGAUCAUUGCUUUCAGUGAUAGACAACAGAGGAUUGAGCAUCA: 0.264 ratio
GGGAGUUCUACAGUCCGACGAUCCAUAAAGUUUGAUGUGCAGUUUCCUGAAAACAACUGGAUCAACCCAGACAAGCUUUCUGAACUAGAAGAUCUUCUGCCAUCUAGACCGGAAGUUCCUAACAUAAUUGGAGAAACAGAGGACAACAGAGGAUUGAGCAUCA: 0.163 ratio
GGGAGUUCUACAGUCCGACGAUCCAAACACCCUUUGUAUUCCAAAAUAGGGUCUCAAACAUUUUGUAAUUUUCAUUUAAAUUGUUAGGAGGCUUGGAGCUAUUAGUUAAUCUAUCUUCCAAUACACUGUUUAAUAUAGCACUGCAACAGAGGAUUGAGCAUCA: 1.44 ratio

Series 2
Target: RNA binding protein fox-1 homolog 2, RRM domain, GST-SBP tag (RBFOX2, Homo sapiens, UniProt O43251-10, residues 100-194)
Technique: RNA Bind-n-Seq
Molecule type: RNA
Sample: in vitro
Tested at: 365 nM
Notes: natural RNA segment, single round, ends assumed
Baseline: no-protein control
Reading: higher = stronger binding
Measurement: RBNS enrichment (R)
Construct (chain): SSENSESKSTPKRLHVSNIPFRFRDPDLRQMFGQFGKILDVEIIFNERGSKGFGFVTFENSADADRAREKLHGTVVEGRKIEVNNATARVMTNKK
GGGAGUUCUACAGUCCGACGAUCAUUUUACAACUUGCUGAGACACAAAUACUGUGCCCUUCCUGUCCUACUGACCACUGGGUAUGUAAUCUUUGAGGGAUAUGCGCUUUUAGGAAAAAGGAUUUCCCUUUAAGUGGAAUUCUCGGGUGCCAA: 0.288
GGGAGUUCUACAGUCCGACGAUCUUAAAAUUUUAAAGCAAUCUUGGCAGACUAAAACAAGUACAUCUGUACAUGACUGUAUAAUUACGAUUAUAGUACCACUGCACAUCAUGUUUUUUUUUUUAAGACAAAAAUGGAAUUCUCGGGUGCCAA: 0.336
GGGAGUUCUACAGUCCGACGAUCAAAAGUAAUUUGCUUAUUCAGUGGGCAUGUAAAGAGUCUGGCCACCAUGUCCCCUCUGCACCGUGACUUGGUGAUGGCUUUGUGGACAUGGCUGAAGCUGGAUGAGAUGUUGGAAUUCUCGGGUGCCAA: 0.646
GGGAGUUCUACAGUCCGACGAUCUCCCUUCUCUUGGAAUGUGAAGAUCUGUCGAUUCAUCCUGUCAUUAAUCCUGACAUACAGAACAAAGAAUGCAGUAACAUUAGCCCUGCCAGGUCACGUGUAGGACGUGCUGGAAUUCUCGGGUGCCAA: 0.345
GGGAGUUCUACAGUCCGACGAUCAGCAGUGUCUCCUGCCAGAACUCCUCACCCAGGAUGAAUGUGUUUACUCCACGCUGUAUAUCUUUCCAUGCUCCGGCUGCCUGGACCAGUAAAUAAAAUGGAUGUAAUAUUGGAAUUCUCGGGUGCCAA: 0.407
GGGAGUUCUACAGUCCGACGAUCGAACAAAUUUAUUUUGCUUACCACAGUGUUAUAGCUGGUUCUAGAAAUUUGAAGUCUUUAUAACUUAAUUAUGUUUAAUAAAAAAUAGAGUCUGCCUCGUACUACAGAUGUGGAAUUCUCGGGUGCCAA: 0.498
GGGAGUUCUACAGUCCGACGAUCUGCUUAUUUAGUUUUUGUUUCUACAGGUCAAACAUGAUUGCUUUCUAUAAAAGAAAUGCUUGAGAGGUUGACUAUAAUGGAUAUGUCACAGGUAUAAAACAGUUGUUUUCUGGAAUUCUCGGGUGCCAA: 0.426
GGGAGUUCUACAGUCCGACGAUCUUUUCAGGGAAAACUAUAUAAAAGCUUUCUGAGCCACAGCCUUUUAAAAGGGGAAAGGCUAAUAGUAAAAUUUGACUUUCUGACUGCAUGCAACUGCUGGGCUUGCCUUCUGGAAUUCUCGGGUGCCAA: 1.28

Series 3
Target: Ras GTPase-activating protein-binding protein 1, full length (G3BP1, Homo sapiens, UniProt Q13283)
UniProt Q13283, sequence (whole entry, looked up): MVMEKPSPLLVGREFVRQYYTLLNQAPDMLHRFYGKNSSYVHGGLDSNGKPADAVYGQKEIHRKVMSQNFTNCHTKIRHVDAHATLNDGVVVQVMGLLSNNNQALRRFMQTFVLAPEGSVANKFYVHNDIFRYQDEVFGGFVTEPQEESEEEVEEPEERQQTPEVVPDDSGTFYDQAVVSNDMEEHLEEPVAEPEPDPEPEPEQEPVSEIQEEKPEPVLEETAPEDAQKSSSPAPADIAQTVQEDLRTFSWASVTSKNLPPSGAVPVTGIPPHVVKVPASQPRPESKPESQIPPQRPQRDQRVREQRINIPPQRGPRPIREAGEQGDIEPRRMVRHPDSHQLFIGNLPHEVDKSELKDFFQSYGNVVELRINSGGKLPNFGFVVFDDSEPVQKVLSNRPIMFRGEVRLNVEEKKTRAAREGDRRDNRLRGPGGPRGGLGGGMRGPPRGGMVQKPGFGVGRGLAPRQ
Technique: RNA Bind-n-Seq
Molecule type: RNA
Sample: in vitro
Tested at: 200 nM
Notes: whole 134-nt RNA, ends assumed
Added: 150 mM KCl
Baseline: input library
Reading: higher = stronger binding
Measurement: log2 enrichment
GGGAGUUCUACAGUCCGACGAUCCUCAAGUCCUGUGCUACACAUCGUAUGUACCGAAUCGGGGUUGGGUUGGUUGGAAAGUAUUAUGUUACGCCGUUCGGAUCUGCACUUCCAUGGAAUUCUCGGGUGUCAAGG: 0.226
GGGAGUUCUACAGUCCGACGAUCCCUGUGCUACACAUCGUAUGUACCGAAUCGGGUUUUUUUGGGGUUUUUUUGGUUUUUUUGGAAAGUAUUAUGUUACGCCGUUCGGAUCUGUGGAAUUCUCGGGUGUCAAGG: -0.711
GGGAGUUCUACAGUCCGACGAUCUAACUUUAGAGGAGGAUCUGAGGGAUAUGGCAGUGGACGUGGAUUUGGGGAUGGCUAUAAUGGGUAUGGAGGAGGACCUGGAGGUGGCAAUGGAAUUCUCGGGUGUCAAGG: 0.477
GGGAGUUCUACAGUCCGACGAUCUGUCUGGUGACAAGGAAGAGGAUGCUCCUCAUAGAGAAGAUUACUUUGAGCCCAUUUCUCCUGAUCGGAAUUCUGUUCCCCAGGAAGGGCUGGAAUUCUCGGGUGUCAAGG: -2.03
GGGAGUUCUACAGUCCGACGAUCUUUUCUGUUUGAAACAGUUUUAUACUUUCUGAUAUAGUACUUGAAAUUCUUACCAGAAAAUUACUUUGGAGUUUUGAAGCCUUUAUUAAUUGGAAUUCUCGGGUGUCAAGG: -1.1
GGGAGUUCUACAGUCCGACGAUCUGGGAGGUGGAUUUUGUUUAUUUUUUUAGCUCAUUUCCAGGGGUGGGAAUUUUUUUUUAAUAUGUGUCAUGAAAAAAGUUGUUUUUGAAAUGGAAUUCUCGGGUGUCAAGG: 0.342
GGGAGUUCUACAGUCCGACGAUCUAACUUUAGAGGAGGAUCUCAUGGAUAUGGCAGUGGACGUGGAUUUGGGGAUGGCUAUAAUGGGUAUGGAGGAGGACCUGGAGGUGGCAAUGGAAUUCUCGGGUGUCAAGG: 0.441
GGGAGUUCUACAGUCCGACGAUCCCUGUGCUACACAUCGUAUGUACCGAAUCGGGCCCCCCGGGGCCCCCCGGGCCCCCCGGGAAAGUAUUAUGUUACGCCGUUCGGAUCUGCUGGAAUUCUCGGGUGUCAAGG: -0.7
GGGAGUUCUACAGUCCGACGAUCGUCCUGUGCUACACAUCGUAUGUACCGAAUCGGGGCCCCCGGCCCCCGGCCCCCGGGGAAAGUAUUAUGUUACGCCGUUCGGAUCUGCACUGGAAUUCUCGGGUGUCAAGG: -0.437

Series 4
Target: Histone acetyltransferase KAT6A, winged helix 2, GST fusion (KAT6A, Homo sapiens, UniProt Q92794, residues 85-181)
Technique: protein binding microarray
Molecule type: double-stranded DNA, one strand shown
Sample: in vitro
Tested at: not given
Notes: 8-mer, flanks averaged, mean of 2 arrays, mostly near background
Baseline: not given
Reading: higher = stronger binding
Measurement: E-score
Target sequence (chain): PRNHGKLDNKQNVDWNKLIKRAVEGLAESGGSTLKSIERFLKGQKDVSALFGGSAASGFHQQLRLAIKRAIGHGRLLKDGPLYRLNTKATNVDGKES
CTGGATCA: -0.00585
GATTTAAA: -0.0788
GATTAGAA: -0.00201
CATTCCAC: -0.107
TGTGTTAA: -0.00743
AATTCGGT: 0.0412
ACGACATG: 0.0891
TGCCAAAA: 0.167
GGTTAGAA: -0.212
GTCTAAGA: 0.0826
ATTTCCGG: -0.0336
CTAGCGGA: 0.0156
AAAAGAGT: -0.0694
CTGTACTA: -0.0574
GGGGGTGA: 0.0279
GCCGCAAC: 0.115
GCGACCTA: 0.106
ATGGCTTA: -0.0645
AGACGGGG: 0.0744
CCAAATTC: 0.0658
TGAACGAA: 0.00839
